Results from different studies.
Lines come from different studies, so protocols differ. In brackets after ≈: the same amount, converted by molar mass.
Chain of UniProt Q16602 (whole entry, looked up): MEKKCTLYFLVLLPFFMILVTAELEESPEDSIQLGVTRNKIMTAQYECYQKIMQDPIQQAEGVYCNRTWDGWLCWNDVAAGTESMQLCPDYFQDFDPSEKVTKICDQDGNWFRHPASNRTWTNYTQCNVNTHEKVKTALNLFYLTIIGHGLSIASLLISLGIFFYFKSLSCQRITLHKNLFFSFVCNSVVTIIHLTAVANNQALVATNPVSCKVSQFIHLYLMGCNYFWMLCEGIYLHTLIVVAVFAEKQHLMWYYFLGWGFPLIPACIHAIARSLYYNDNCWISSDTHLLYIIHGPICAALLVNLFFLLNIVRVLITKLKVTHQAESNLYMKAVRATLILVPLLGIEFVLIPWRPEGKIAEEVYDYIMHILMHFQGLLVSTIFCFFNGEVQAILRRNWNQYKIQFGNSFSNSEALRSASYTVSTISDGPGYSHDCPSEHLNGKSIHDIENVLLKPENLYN
Chain of UniProt P16152 (whole entry, looked up): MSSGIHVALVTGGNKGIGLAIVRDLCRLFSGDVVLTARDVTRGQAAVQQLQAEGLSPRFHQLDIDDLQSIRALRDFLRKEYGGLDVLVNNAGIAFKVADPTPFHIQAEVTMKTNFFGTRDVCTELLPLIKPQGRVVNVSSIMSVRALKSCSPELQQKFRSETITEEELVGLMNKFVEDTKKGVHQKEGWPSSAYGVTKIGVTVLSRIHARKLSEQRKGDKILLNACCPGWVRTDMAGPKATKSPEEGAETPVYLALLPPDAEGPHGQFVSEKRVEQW
Chain of UniProt O60895 (whole entry, looked up): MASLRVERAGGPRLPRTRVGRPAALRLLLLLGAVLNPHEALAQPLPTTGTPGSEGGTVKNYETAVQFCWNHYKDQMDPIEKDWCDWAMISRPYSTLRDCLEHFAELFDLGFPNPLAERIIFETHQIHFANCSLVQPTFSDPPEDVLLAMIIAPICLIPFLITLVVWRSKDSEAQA

For `Oc1ccc(C2(c3ccc(O)cc3)c3ccccc3-c3ccccc32)cc1`, “spheroid area increase” read 126% (HepG2 spheroids; planimetry; 5 µM, 0 to 24 h; reference: mean area of 72 h spheroids).
The neurite length of `O=c1cc(-c2ccccc2)oc2c(O)c(O)ccc12` is reported as 32.5 to 36.5 µm (SH-SY5Y Aβ-GFP cells, scrambled shRNA; 5 µM).
`COc1ccc2c(c1)[nH]c1c(C)nccc12` gave a methylation reduction of 0.05% (DU-145; bisulfite pyrosequencing, refers to: RASSF1A promoter CpG site 6; concentration not given; reference: vehicle).
`CC[C@H](C)[C@@H]1NC(=O)[C@@H]2CCCN2C(=O)[C@H](CC(C)C)NC(=O)[C@H](CC(C)C)NC(=O)CNC(=O)[C@@H](NC(=O)[C@@H](NC(=O)[C@H](CC(=O)O)NC(=O)CNC(=O)[C@@H](NC(=O)[C@H](C)NC(=O)CNC(=O)[C@H](CCCCN)NC(=O)[C@H](CC(C)C)NC(=O)[C@H](CC(C)C)NC(=O)[C@H](CCCCN)NC(=O)CNC(=O)[C@@H](NC(=O)[C@@H](N)CC(C)C)C(C)C)C(C)C)C(C)C)CSSC[C@@H](C(=O)O)NC1=O`: “log2 fold change” -2.71 (RNA-seq, refers to: Fam110c; mouse, traumatic brain injury model, frontal cortex and hippocampus; dose not given; reference: TBI alone).
`COc1cc(Nc2ncc(F)c(Nc3ccc4c(n3)NC(=O)C(C)(C)O4)n2)cc(OC)c1OC` has an IC50 of greater than 10000 nM (Adrenomedullin receptor AM1; CALCRL/RAMP2 (Homo sapiens, UniProt O60895+Q16602)).
The relative abundance of `C[C@H]1CN(c2n[nH]c3nc(N[C@H]4CC[C@H](NS(=O)(=O)CCC(F)(F)F)CC4)ncc23)CCO1` is reported as 1.14 (CBR1 (Homo sapiens, UniProt P16152); inhibitor, Kinobeads competition profiling; 20 µM; reference: vehicle).
`Nc1ncnc2c1ncn2[C@@H]1O[C@@H]2COP(=O)(O)O[C@H]3[C@@H](O)[C@H](n4cnc5c(=O)[nH]cnc54)O[C@@H]3COP(=O)(O)O[C@H]2[C@H]1O` gave a fold enrichment of 3.77 (HFF-1; RNA sequencing, refers to: Reactome peptide ligand-binding receptors; upregulated pathways; reference: mock).
`COc1c(CCC[P+](c2ccccc2)(c2ccccc2)c2ccccc2)cc2c(c1OC)OCO2.[I-]` has an LC50 of greater than -4 log M (OVCAR-8; SRB).
For `CN1CCN(C2(CNC3CCN(c4cccc(-c5cc6cc(F)ccc6[nH]5)c4)CC3)CCC2)CC1`, the CC50 was 6850 nM (SF-295).
`Nc1ncc(-c2nc(N3CCOCC3)nc(N3CCOCC3)n2)c(C(F)F)n1` has a GI50 of 46 nM (LoVo; 72 h).
`C/C=C(/C)C(=O)O[C@H]1C(C)=C2[C@H]([C@@H]1OC(=O)CCCCCCC)[C@@](C)(OC(C)=O)C[C@H](OC(=O)CCC)[C@@]1(O)[C@H]2OC(=O)[C@@]1(C)O` — result for “normalized enrichment score”: 1.15 (HEK-293T; RNA-seq GSEA, refers to: Hallmark complement; 500 nM, 6 h; direction not given).
With `COc1c(C)c2c(c(O)c1C/C=C(\C)CCC(=O)O)C(=O)OC2` the IC50 was 74.1 nM (WSU-NHL; cell proliferation).
With `CC(C)N1CCC(NC2CCN(c3cccc(-c4cc5cc(F)ccc5[nH]4)c3)CC2)CC1` the GI50 was 956 nM (NCI-H460).
`CC[C@H](C)[C@H](NC(=O)[C@H](C)NC(=O)[C@H](CCCCN)NC(=O)[C@H](CC(C)C)NC(=O)[C@H](C)NC(=O)[C@@H](NC(=O)[C@H](Cc1c[nH]cn1)NC(=O)[C@H](CC(C)C)NC(=O)[C@@H](NC(=O)[C@@H](NC(=O)[C@H](CCCCN)NC(=O)[C@H](C)NC(=O)[C@H](C)NC(=O)[C@H](CO)NC(=O)[C@H](CCCCN)NC(=O)[C@H](Cc1ccccc1)NC(=O)[C@@H](NC(=O)[C@H](CCCCN)NC(=O)[C@H](CC(C)C)NC(=O)[C@H](Cc1ccccc1)NC(=O)[C@H](CO)NC(=O)[C@H](CCCCN)NC(=O)[C@H](Cc1c[nH]c2ccccc12)NC(=O)[C@H](CCCCN)NC(C)=O)[C@@H](C)O)[C@@H](C)O)C(C)C)[C@@H](C)O)C(=O)N[C@@H](CO)C(=O)N[C@@H](CO)C(N)=O` — result for “MIC geometric mean”: 7.16 µg/mL (≈ 2.44 µM) (Pseudomonas aeruginosa; IPM-R; 81 strains).
`CN1CC[C@@H](c2c(O)cc(O)c3c(=O)cc(-c4ccc(C(F)(F)F)cc4Cl)oc23)[C@@H]1CO`: “patients with adverse event” 12.5% (refers to: Sepsis; B-cell malignancies or AML; oral, 100 mg, continuous dosing).
`COc1cc(CCC[P+](c2ccccc2)(c2ccccc2)c2ccccc2)c(OC)c2c1OCO2.[I-]` has a TGI of -5.13 log M (SF-295; SRB).

A few entries again:
`CC[C@H](C)[C@H](NC(=O)[C@H](C)NC(=O)[C@H](CCCCN)NC(=O)[C@H](CC(C)C)NC(=O)[C@H](C)NC(=O)[C@@H](NC(=O)[C@H](Cc1c[nH]cn1)NC(=O)[C@H](CC(C)C)NC(=O)[C@@H](NC(=O)[C@@H](NC(=O)[C@H](CCCCN)NC(=O)[C@H](C)NC(=O)[C@H](C)NC(=O)[C@H](CO)NC(=O)[C@H](CCCCN)NC(=O)[C@H](Cc1ccccc1)NC(=O)[C@@H](NC(=O)[C@H](CCCCN)NC(=O)[C@H](CC(C)C)NC(=O)[C@H](Cc1ccccc1)NC(=O)[C@H](CO)NC(=O)[C@H](CCCCN)NC(=O)[C@H](Cc1c[nH]c2ccccc12)NC(=O)[C@H](CCCCN)NC(C)=O)[C@@H](C)O)[C@@H](C)O)C(C)C)[C@@H](C)O)C(=O)N[C@@H](CO)C(=O)N[C@@H](CO)C(N)=O` — result for “MIC geometric mean”: 7.16 µg/mL (≈ 2.44 µM) (Pseudomonas aeruginosa; IPM-R; 81 strains).
`CN1CC[C@@H](c2c(O)cc(O)c3c(=O)cc(-c4ccc(C(F)(F)F)cc4Cl)oc23)[C@@H]1CO`: “patients with adverse event” 12.5% (refers to: Sepsis; B-cell malignancies or AML; oral, 100 mg, continuous dosing).
